Measured values pooled from the literature.
Protocols differ between the studies behind these lines. Values joined by “and” are separate records of one study, mostly repeats; a detail may differ. ± marks the error that the study gave.

Nc1nc(N)c2nc(CNc3ccc(C(=O)NCCc4ccccc4)cc3)cnc2n1 — mitochondrial toxicity (786-O; high-content imaging, refers to: MitoTracker Red uptake; 10 µM): 12.7 ± 4.86%
COc1cnc2cccc(N3CCc4c(cc(Cn5ccnc5C)cc4-c4cn(C)nc4C(F)(F)F)C3=O)c2c1 — EC50 (NCI-H2030; cell growth, inhibitor; 120 h): 3200 nM
COc1cc2ncnc(Nc3ccc(Oc4ccccc4)cc3C)c2cc1OC — viability (A-375; 1 µM, 72 h): 96.2%
Cn1cc(-c2ccc(-c3cncc(Cl)c3N3CCC4(CCNC4=O)CC3)cc2)cn1 — log2 fold change (COLO 205; gene expression, microarray, refers to: OAS2 mRNA; concentration not given, 2 h; reference: untreated cells): 1.18
CCC(C)n1ncn(-c2ccc(N3CCN(c4ccc(OCC5COC(Cn6cncn6)(c6ccc(Cl)cc6Cl)O5)cc4)CC3)cc2)c1=O (stereo not shown) — IC50 (HD-MB03; cell growth; 168 h, single agent): 684 nM
CCn1cc(-c2cc(Cn3ccoc3=N)cc3c2CCN([C@@H](C)c2cc(OC)ccn2)C3=O)c(C(F)(F)F)n1 — EC50 (RKO; cell growth, inhibitor; 120 h): > 30000 nM
CC/C(=N\NC(=O)NCc1cccc(O)c1)c1ccc(O)c(C)c1O — LATS band intensity (SK-OV-3; Western blot; 10 µM, 6 h, 3D gellan gum culture, unit not given; reference: DMSO): 1 ± 0.58
CC(C)C[C@H](NC(=O)[C@H](Cc1ccccc1)NC(=O)c1cnccn1)B(O)O — IC50 (HD-MB03; cell growth; 168 h, DMSO): 7.23 nM
O=C(/C=C/C=C/C=C/C1CCCCC1)NC1=C[C@@](O)(/C=C/C=C/C=C/C(=O)NC2=C(O)CCC2=O)[C@@H]2O[C@@H]2C1=O — GI50 (SU.86.86; cell growth, CellTiter-Glo; 78 h): > 30000 nM
COc1cc(/C=C/C(=O)N2CCC=CC2=O)cc(OC)c1OC — mRNA level (MDA-MB-468; quantitative RT-PCR, refers to: BACE2; 30 µM, 8 h; reference: untreated cells): 60.2 ± 6.6%
CC[C@@]1(O)C(=O)OCc2c1cc1n(c2=O)Cc2cc3c(CN(C)C)c(O)ccc3nc2-1 — IC50 (HD-MB03; cell growth; 168 h, DMSO): 453 nM
Cc1cccc(-c2[nH]c(CNc3ccccc3F)nc2-c2ccc3ncnn3c2)n1 — apoptotic cells (patient CD138+ cells; flow cytometry, refers to: annexin V and PI; 2 µM, autologous CD8+ T-cell co-culture): 6.6% and 5.53% and 13.9% and 10.9%
Cc1[nH]c2ccccc2c1CCNCc1ccc(/C=C/C(=O)NO)cc1 — IC50 (HD-MB03; cell growth; 168 h, single agent): 9.47 nM
CCn1cc(-c2cc(Cn3ccnc3)cc3c2CCN([C@H](c2cc(OC)ccn2)C2CC2)C3=O)c(C(F)(F)F)n1 — EC50 (BICR6; cell growth; 120 h): 835 nM
CC1(C)OCCn2c1nc1c(N3CCOCC3)nc(-c3cnc(N)nc3)nc12 — IC50 (HD-MB03; cell growth; 168 h, DMSO): 339 nM
Cc1cnc(NC2CCOCC2)nc1-n1cnc(C(=O)NC(CN)c2cc(F)cc(Cl)c2)c1 (stereo not shown) — G1 phase cells (A-375; flow cytometry; 1 µM, 48 h): 96.3%

For quick reference, copied from above:
COc1cc2ncnc(Nc3ccc(Oc4ccccc4)cc3C)c2cc1OC — viability (A-375; 1 µM, 72 h): 96.2%
Cn1cc(-c2ccc(-c3cncc(Cl)c3N3CCC4(CCNC4=O)CC3)cc2)cn1 — log2 fold change (COLO 205; gene expression, microarray, refers to: OAS2 mRNA; concentration not given, 2 h; reference: untreated cells): 1.18
